# Assay results collected from several papers.
Compound,organism,test,test system,conditions,MIC
CC1(C)SC2C(NC(=O)C(NC(=O)C3=C(O)C(Cc4ccc(F)cc4)NC3=O)c3ccccc3)C(=O)N2C1C(=O)O (stereo not shown),Escherichia coli,broth microdilution,Keio mutant JW5086-3,"18 h, ferrienterobactin permease gene",12.5 µg/mL
CC(C)C[C@H](NC(=O)[C@@H](NC(=O)[C@H](CCCNC(=N)N)NC(=O)[C@H](CCC(N)=O)NC(=O)[C@H](Cc1ccccc1)NC(=O)[C@H](Cc1ccc(O)cc1)NC(=O)[C@H](CC(N)=O)NC(=O)[C@H](Cc1c[nH]c2ccccc12)NC(=O)[C@@H](NC(=O)[C@H](CCCNC(=N)N)NC(=O)[C@H](CCCCN)NC(=O)[C@@H](N)Cc1ccccc1)C(C)C)C(C)C)C(=O)N[C@H](C(=O)N[C@@H](CCCCN)C(=O)N[C@@H](CCCCN)C(N)=O)C(C)C,Listeria monocytogenes,broth dilution,KCTC 13064,,50 µM
CC(C)C[C@@H](NC(=O)[C@H](C)NC(=O)CNC(=O)[C@@H](NC=O)C(C)C)C(=O)N[C@@H](C)C(=O)N[C@@H](C(=O)N[C@H](C(=O)N[C@@H](C(=O)N[C@@H](Cc1c[nH]c2ccccc12)C(=O)N[C@H](CC(C)C)C(=O)N[C@@H](Cc1cccc2cc[nH]c12)C(=O)N[C@H](CC(C)C)C(=O)N[C@@H](Cc1c[nH]c2ccccc12)C(=O)N[C@H](CC(C)C)C(=O)N[C@@H](Cc1c[nH]c2ccccc12)C(=O)NCCO)C(C)C)C(C)C)C(C)C,Listeria monocytogenes,broth microdilution,10403S,,1.1 µM
CC(C)(C)Oc1ccc(CC2NC(=O)C(C(=O)NC(C(=O)NC3C(=O)N4C3SC(C)(C)C4C(=O)O)c3ccccc3)=C2O)cc1 (stereo not shown),Escherichia coli,broth microdilution,Keio mutant JW2142-1,,25 µg/mL
CC(C)[C@H](NC(=O)[C@H](CCCNC(=N)N)NC(=O)[C@H](Cc1c[nH]c2ccccc12)NC(=O)[C@H](CCCNC(=N)N)NC(=O)[C@H](Cc1c[nH]c2ccccc12)NC(=O)[C@H](Cc1c[nH]c2ccccc12)NC(=O)[C@H](Cc1c[nH]c2ccccc12)NC(=O)[C@H](CCCNC(=N)N)NC(=O)[C@H](Cc1c[nH]c2ccccc12)NC(=O)[C@@H](N)CCCNC(=N)N)C(N)=O,Candida albicans,broth microdilution,"CGMCC 2.209, RPMI 1640-MOPS","48 h, 30 °C, added: MgCl2 1 mM",32 µM
CC[C@H](C)[C@H](NC(=O)[C@@H](NC(=O)[C@H](Cc1ccccc1)NC(=O)CNC(=O)[C@H](CCC(N)=O)NC(=O)[C@H](CCCCN)NC(=O)[C@H](C)N)C(C)C)C(=O)N[C@@H](Cc1ccc(O)cc1)C(=O)N[C@@H](CCCNC(=N)N)C(=O)N[C@H](C(=O)N[C@@H](CCCNC(=N)N)C(=O)N[C@H](C(=O)N[C@@H](CCCNC(=N)N)C(=O)N[C@@H](CCCNC(=N)N)C(=O)NCC(=O)N[C@@H](CC(N)=O)C(=O)N[C@@H](CCCNC(=N)N)C(=O)N[C@@H](CCCCN)C(N)=O)C(C)C)C(C)C,Enterobacter sp.,broth dilution,KCTC 2625,,3.1 µM
CC(C)CC1NC(=O)C(C(=O)NC(C(=O)NC2C(=O)N3C2SC(C)(C)C3C(=O)O)c2ccccc2)=C1O (stereo not shown),Escherichia coli,broth microdilution,"isolate IU, CTX-M-14, TEM-1",no clavulanic acid,> 200 µg/mL
CC[C@H](C)[C@H](NC(=O)[C@H](CCCCN)NC(=O)[C@H](CCCCN)NC(=O)[C@H](Cc1ccccc1)NC(=O)[C@@H](NC(=O)[C@@H](NC(=O)[C@H](CCCNC(=N)N)NC(=O)[C@H](Cc1ccccc1)NC(=O)[C@@H](NC(=O)[C@H](CCCCN)NC(=O)[C@H](CCCCN)NC(=O)[C@@H](N)CCSC)[C@@H](C)CC)C(C)C)[C@@H](C)CC)C(=O)N[C@@H](CC(C)C)C(=O)N[C@@H](CCCCN)C(=O)N[C@@H](CCCNC(=N)N)C(=O)N[C@@H](CC(C)C)C(=O)N[C@H](C(=O)N[C@H](C(=O)O)C(C)C)[C@@H](C)CC,Staphylococcus aureus,broth microdilution,ATCC 25923,added: 1 mM MgSO4,4 µg/mL
Oc1c(Br)cc(Br)cc1-c1[nH]c(Br)c(Br)c1Br,Providencia alcalifaciens,,ATCC 9886,,32 µM
CC1(C)SC2C(NC(=O)C(NC(=O)C3=C(O)CNC3=O)c3ccccc3)C(=O)N2C1C(=O)O (stereo not shown),Escherichia coli,broth microdilution,"isolate IU 356 A, KPC-3, VIM-1, TEM",no clavulanic acid,> 200 µg/mL
N=C(N)NCCC[C@H](NC(=O)[C@H](Cc1c[nH]c2ccccc12)NC(=O)[C@H](CCCNC(=N)N)NC(=O)[C@H](Cc1c[nH]c2ccccc12)NC(=O)[C@H](Cc1c[nH]c2ccccc12)NC(=O)[C@H](Cc1c[nH]c2ccccc12)NC(=O)[C@H](CCCNC(=N)N)NC(=O)[C@H](Cc1c[nH]c2ccccc12)NC(=O)[C@@H](N)CCCNC(=N)N)C(=O)N[C@@H](Cc1ccccc1)C(N)=O,Candida albicans,broth microdilution,"14936, RPMI 1640-MOPS","48 h, 30 °C",8 µM
CC[C@H](C)CCCCC(=O)N[C@@H](CCN)C(=O)N[C@H](C(=O)N[C@@H](CCN)C(=O)N[C@H]1CCNC(=O)[C@H]([C@@H](C)O)NC(=O)[C@H](CCN)NC(=O)[C@H](CCN)NC(=O)[C@H](CC(C)C)NC(=O)[C@@H](Cc2ccccc2)NC(=O)[C@H](CCN)NC1=O)[C@@H](C)O,Salmonella enterica serovar Typhimurium,,DA6192,"24 h, 37 °C",2 µg/mL
N=C(N)NCCC[C@H](NC(=O)CN)C(=O)N[C@@H](Cc1c[nH]c2ccccc12)C(=O)N[C@@H](CCCNC(=N)N)C(=O)N[C@@H](Cc1c[nH]c2ccccc12)C(=O)N[C@@H](Cc1c[nH]c2ccccc12)C(=O)N[C@@H](Cc1c[nH]c2ccccc12)C(=O)N[C@@H](CCCNC(=N)N)C(=O)N[C@@H](Cc1c[nH]c2ccccc12)C(=O)N[C@@H](CCCNC(=N)N)C(=O)N[C@@H](Cc1c[nH]c2ccccc12)C(N)=O,Candida albicans,broth microdilution,"alveolar fluid isolate, RPMI 1640-MOPS","48 h, 30 °C",8 µM
CC1(C)SC2C(NC(=O)C(NC(=O)C3=C(O)C4CCCN4C3=O)c3ccccc3)C(=O)N2C1C(=O)O (stereo not shown),Escherichia coli,broth microdilution,Keio mutant JW5086-3,"18 h, ferrienterobactin permease gene",25 µg/mL
Cc1ncc([N+](=O)[O-])n1CCO,Fusobacterium nucleatum,,,,0.06 to 0.25 µg/mL
CC1(C)SC2C(NC(=O)C(NC(=O)C3=C(O)C4(CC4)NC3=O)c3ccccc3)C(=O)N2C1C(=O)O (stereo not shown),Escherichia coli,broth microdilution,"ATCC 35218, low-level TEM-1",no clavulanic acid,> 200 µg/mL
CC(C)C[C@H](NC(=O)[C@H](CCCNC(=N)N)NC(=O)[C@H](Cc1c[nH]c2ccccc12)NC(=O)[C@H](CCCNC(=N)N)NC(=O)[C@H](Cc1c[nH]c2ccccc12)NC(=O)[C@H](Cc1c[nH]c2ccccc12)NC(=O)[C@H](Cc1c[nH]c2ccccc12)NC(=O)[C@H](CCCNC(=N)N)NC(=O)[C@H](Cc1c[nH]c2ccccc12)NC(=O)[C@H](CCCNC(=N)N)NC(=O)CN)C(N)=O,Candida albicans,broth microdilution,"CGMCC 2.209, RPMI 1640-MOPS","48 h, 30 °C",32 µM
N=C(N)NCCC[C@H](NC(=O)CCCCCNC(=O)[C@H](CCCNC(=N)N)NC(=O)[C@H](CCCNC(=N)N)NC(=O)CCCCCNC(=O)[C@H](CCCNC(=N)N)NC(=O)[C@H](CCCNC(=N)N)NC(=O)CCCCCNC(=O)[C@H](CCCNC(=N)N)NC(=O)[C@H](CCCNC(=N)N)NC(=O)CCCCCNC(=O)[C@@H](N)CCCNC(=N)N)C(=O)NCCCCCC(=O)NCCC(=O)O,Escherichia coli,broth microdilution,"BAA 41, resistant, Mueller-Hinton broth",,48 µM
N=C(N)NCCC[C@H](NC(=O)[C@H](Cc1c[nH]c2ccccc12)NC(=O)[C@H](CCCNC(=N)N)NC(=O)[C@H](Cc1c[nH]c2ccccc12)NC(=O)[C@H](Cc1c[nH]c2ccccc12)NC(=O)[C@H](Cc1c[nH]c2ccccc12)NC(=O)[C@H](CCCNC(=N)N)NC(=O)[C@H](Cc1c[nH]c2ccccc12)NC(=O)[C@H](CCCNC(=N)N)NC(=O)CN)C(N)=O,Candida albicans,broth microdilution,"CGMCC 2.209, RPMI 1640-MOPS","48 h, 30 °C, added: CaCl2 2 mM",16 µM
CC[C@H](C)[C@H](NC(=O)[C@H](C)NC(=O)[C@H](CCCCN)NC(=O)[C@H](CC(C)C)NC(=O)[C@H](C)NC(=O)[C@@H](NC(=O)[C@H](Cc1c[nH]cn1)NC(=O)[C@H](CC(C)C)NC(=O)[C@@H](NC(=O)[C@@H](NC(=O)[C@H](CCCCN)NC(=O)[C@H](C)NC(=O)[C@H](C)NC(=O)[C@H](CO)NC(=O)[C@H](CCCCN)NC(=O)[C@H](Cc1ccccc1)NC(=O)[C@@H](NC(=O)[C@H](CCCCN)NC(=O)[C@H](CC(C)C)NC(=O)[C@H](Cc1ccccc1)NC(=O)[C@H](CO)NC(=O)[C@H](CCCCN)NC(=O)[C@H](Cc1c[nH]c2ccccc12)NC(=O)[C@H](CCCCN)NC(C)=O)[C@@H](C)O)[C@@H](C)O)C(C)C)[C@@H](C)O)C(=O)N[C@@H](CO)C(=O)N[C@@H](CO)C(N)=O,Proteus,,,range over 20 strains,> 64 µg/mL
CC1(C)SC2C(NC(=O)C(NC(=O)C3=C(O)CN(c4ccccc4)C3=O)c3ccccc3)C(=O)N2C1C(=O)O (stereo not shown),Escherichia coli,broth microdilution,"ATCC 35218, low-level TEM-1",added: clavulanic acid 6 µg/mL,100 µg/mL
CC(C)C[C@H](NC(=O)[C@H](CCCNC(=N)N)NC(=O)[C@H](Cc1c[nH]c2ccccc12)NC(=O)[C@H](CCCNC(=N)N)NC(=O)[C@H](Cc1c[nH]c2ccccc12)NC(=O)[C@H](Cc1c[nH]c2ccccc12)NC(=O)[C@H](Cc1c[nH]c2ccccc12)NC(=O)[C@H](CCCNC(=N)N)NC(=O)[C@H](Cc1c[nH]c2ccccc12)NC(=O)[C@@H](N)CCCNC(=N)N)C(N)=O,Candida albicans,broth microdilution,"SP3903, RPMI 1640-MOPS","48 h, 30 °C",8 µM

# Repeated from above:
Compound,organism,test,test system,conditions,MIC
CC(C)C[C@H](NC(=O)[C@H](CCCNC(=N)N)NC(=O)[C@H](Cc1c[nH]c2ccccc12)NC(=O)[C@H](CCCNC(=N)N)NC(=O)[C@H](Cc1c[nH]c2ccccc12)NC(=O)[C@H](Cc1c[nH]c2ccccc12)NC(=O)[C@H](Cc1c[nH]c2ccccc12)NC(=O)[C@H](CCCNC(=N)N)NC(=O)[C@H](Cc1c[nH]c2ccccc12)NC(=O)[C@@H](N)CCCNC(=N)N)C(N)=O,Candida albicans,broth microdilution,"SP3903, RPMI 1640-MOPS","48 h, 30 °C",8 µM
CC1(C)SC2C(NC(=O)C(NC(=O)C3=C(O)CN(c4ccccc4)C3=O)c3ccccc3)C(=O)N2C1C(=O)O (stereo not shown),Escherichia coli,broth microdilution,"ATCC 35218, low-level TEM-1",added: clavulanic acid 6 µg/mL,100 µg/mL
CC1(C)SC2C(NC(=O)C(NC(=O)C3=C(O)C(Cc4ccc(F)cc4)NC3=O)c3ccccc3)C(=O)N2C1C(=O)O (stereo not shown),Escherichia coli,broth microdilution,Keio mutant JW5086-3,"18 h, ferrienterobactin permease gene",12.5 µg/mL
